Published values from different studies.
Compare with care: the assays were run in different laboratories. ± gives the spread as reported.

Structure (SMILES) = CCC(=C(c1ccc(Cl)cc1)c1ccc(OCCN(CC)CC)cc1)c1ccc(OC)cc1; cell line = Ishikawa; test = estrogenic activity, agonist; conditions = 10 nM, 72 h, unit not given; scale = baseline: DMSO; measurement = alkaline phosphatase activity; value = 1.32 ± 0.25
Structure (SMILES) = COc1cc(CNC(=O)C[C@H](C)CCC=C(C)C)ccc1OCc1cn(-c2ccc(Cl)c(Cl)c2)nn1; cell line = NCI-H322M; test = SRB; conditions = 10 µM, 48 h; measurement = growth percent; value = 82.5%
Structure (SMILES) = CO[C@H]1N(OC)c2ccccc2[C@@]12CN=C(Nc1cc(C(F)(F)F)cc(C(F)(F)F)c1)S2 (relative stereo); cell line = HCT-116; test = PI flow cytometry; conditions = 40 µM, 72 h; measurement = G0/G1 phase cells; value = 34.1 ± 9.89%
Structure (SMILES) = COc1ccc([C@@H]2CC(=O)c3c(O)cc(O[C@@H]4O[C@H](CO[C@@H]5O[C@@H](C)[C@H](O)[C@@H](O)[C@H]5O)[C@@H](O[C@H]5O[C@H](CO)[C@@H](O)[C@H](O)[C@H]5O)[C@H](O)[C@H]4O)cc3O2)cc1O; cell line = A549; test = cell growth or viability, MTS; conditions = 50 µg/mL, 48 h; measurement = viability; value = 50.9%
Structure (SMILES) = N=C(N/N=C/c1cccs1)N/N=C/c1cccs1; cell line = PANC-1; test = crystal violet; conditions = 72 h; scale = baseline: IC50 hTERT-HPNE over IC50 PANC-1; measurement = selectivity ratio; value = 2.4
Structure (SMILES) = COc1cc(CNC(=O)C[C@H](C)CCC=C(C)C)ccc1OCc1cn(-c2ccc(Br)cc2)nn1; cell line = SK-OV-3 ovarian cancer cells; test = SRB; conditions = 10 µM, 48 h; measurement = growth percent; value = 64%
Structure (SMILES) = COc1cc(/C=C/C(=O)/C=C/c2ccc(O)c(OC)c2)ccc1O; cell line = CEM-T HIV-1 infected; test = RT-qPCR, refers to: HIV-1 gag and env; conditions = 1 µM, 48 h; measurement = mRNA level; value = decreased
Structure (SMILES) = COc1cc(CNC(=O)C[C@H](C)CCC=C(C)C)ccc1OCc1cn(-c2ccccc2F)nn1; cell line = TK-10; test = SRB; conditions = 10 µM, 48 h; measurement = growth percent; value = 95.8%
Structure (SMILES) = CC/C=C\C/C=C\C/C=C\C/C=C\C/C=C\C/C=C\CCC(=O)Nc1ccn(C2OC(CO)C(O)C2(F)F)c(=O)n1 (stereo not shown); cell line = SK-MEL-5; test = cell growth or viability, SRB; measurement = GI50; value = 0.29 µM
Structure (SMILES) = COc1cc(CNC(=O)C[C@H](C)CCC=C(C)C)ccc1OCc1cn(-c2ccccc2)nn1; cell line = NCI-H23; test = SRB; conditions = 10 µM, 48 h; measurement = growth percent; value = 91.9%
Structure (SMILES) = CC(=O)OC[C@H]1O[C@@H](Sc2sc(C(=O)c3ccc(Br)cc3)c(N)c2-c2nc3ccccc3s2)[C@H](OC(C)=O)[C@@H](OC(C)=O)[C@@H]1OC(C)=O; cell line = HOP-92; test = SRB; conditions = 10 µM, 48 h; scale = baseline: untreated; measurement = growth; value = 81.7%
Structure (SMILES) = COc1cc(CNC(=O)C[C@H](C)CCC=C(C)C)ccc1O; cell line = HOP-92; test = SRB; conditions = 10 µM, 48 h; measurement = growth percent; value = 83.5%
Structure (SMILES) = CCc1nnc(NS(=O)(=O)c2ccc(NC(=S)NC(=O)/C=C/c3ccc(F)cc3)cc2)s1; cell line = SK-N-AS; conditions = 10 µM, 2 weeks; measurement = colony density; value = decreased
Structure (SMILES) = CCC(C)n1ncn(-c2ccc(N3CCN(c4ccc(OCC5COC(Cn6cncn6)(c6ccc(Cl)cc6Cl)O5)cc4)CC3)cc2)c1=O (stereo not shown); cell line = hiPSC cardiac tissues 3D; test = active force; conditions = 15 min per concentration, paced at 1 Hz serum-free; measurement = minimum effective concentration; value = 3 µM
Structure (SMILES) = CCCC(CCC)C(=O)[O][Pt]([NH2])([NH2])([Cl])([Cl])[O]C(=O)c1ccccc1OC(C)=O; cell line = PSN1; conditions = 1 µM, 24 h; measurement = depolarised mitochondria cells; value = 25 to 30%
Structure (SMILES) = Cc1ccc(CN2C(=O)/C(=N\c3ccc(Cl)cc3Br)c3ccccc32)cc1; cell line = A-375; conditions = 2.7 µM, 48 h; measurement = apoptotic cells; value = 45%
Structure (SMILES) = COC(=O)CC[C@@H](NC(=O)[C@@H](Cc1ccc(OP(=O)(O)O)cc1)NC(=O)[C@@H](Cc1ccccc1)NC(=O)[C@@H](Cc1ccccc1)NC(=O)Cc1ccc2ccccc2c1)C(=O)OC; cell line = SAOS-2; test = MTT; conditions = 10 µM; measurement = viability; value = 11%
Structure (SMILES) = CCCCCCCCCCCCCCCCCCCCCCCC(=O)OCC(O)CO (stereo not shown); cell line = J774.2; test = inhibitor; conditions = concentration not given, added: LPS; measurement = nitric oxide production; value = inactive
Structure (SMILES) = O=Cc1c(O)ccc2ccccc12; cell line = HUVEC; test = RNA sequencing, refers to: NKAPL; conditions = 75 µM, 24 h; scale = baseline: DMSO; measurement = log2 fold change; value = 2.84

Excerpt of the above:
Structure (SMILES) = COc1ccc([C@@H]2CC(=O)c3c(O)cc(O[C@@H]4O[C@H](CO[C@@H]5O[C@@H](C)[C@H](O)[C@@H](O)[C@H]5O)[C@@H](O[C@H]5O[C@H](CO)[C@@H](O)[C@H](O)[C@H]5O)[C@H](O)[C@H]4O)cc3O2)cc1O; cell line = A549; test = cell growth or viability, MTS; conditions = 50 µg/mL, 48 h; measurement = viability; value = 50.9%
Structure (SMILES) = N=C(N/N=C/c1cccs1)N/N=C/c1cccs1; cell line = PANC-1; test = crystal violet; conditions = 72 h; scale = baseline: IC50 hTERT-HPNE over IC50 PANC-1; measurement = selectivity ratio; value = 2.4
